Published values from different studies.
A part holds a random share of what one study measured.

Set 1
Target: Interferon regulatory factor 3, full length, phosphomimetic (IRF3, Homo sapiens, UniProt Q14653, residues 1-427, S386D/S396D/S398D/S402D/T404D/S405D)
Technique: protein-binding microarray
Molecule type: double-stranded DNA, one strand shown
Medium: in vitro
Concentration: 2540 nM top
Setting: 60-bp whole probe
Added: salmon DNA 0.4 mg/ml
Reference: random background probes
Reading: higher = stronger binding
All sequences stand within: GCCTAGCAC … GTCTTGATTCGCTTGACGCTGCTG
Target sequence (chain): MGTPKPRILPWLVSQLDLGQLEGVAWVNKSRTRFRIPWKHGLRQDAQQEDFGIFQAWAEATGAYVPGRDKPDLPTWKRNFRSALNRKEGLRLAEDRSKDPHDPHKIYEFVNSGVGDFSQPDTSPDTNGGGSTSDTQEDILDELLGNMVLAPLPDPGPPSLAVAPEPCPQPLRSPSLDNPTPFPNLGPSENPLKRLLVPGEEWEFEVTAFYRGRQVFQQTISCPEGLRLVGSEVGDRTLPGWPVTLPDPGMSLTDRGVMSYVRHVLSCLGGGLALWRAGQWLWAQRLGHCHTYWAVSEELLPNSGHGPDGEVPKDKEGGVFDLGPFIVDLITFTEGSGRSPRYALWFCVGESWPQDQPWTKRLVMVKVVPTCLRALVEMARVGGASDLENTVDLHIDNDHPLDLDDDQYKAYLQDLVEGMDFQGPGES
| Oligonucleotide | fitted relative affinity [z-score] |
| --- | --- |
| GACGGTCTGCTACTGCTGACGTGCTAG | -0.446 |
| TTAGATTTGAGTATCGATTAGTGCTAG | 0.355 |
| TGAGGTATCCTTCTCCTTTAGTGCTAG | 7.06 |
| CGCAGGGCAGGCTTCGGCCGGTGCTAG | -1.58 |
| TTAGGTCTCCTTTTCCTTTGGTGCTAG | 4.49 |
| TTAGGTTGCGACTATCGGTTAGTGCTA | 0.437 |
| CCAGACCCTGATCCATGCATGTGCTAG | -0.157 |
| TTAGATATCGGGTATCGATTCGTGCTA | 0.701 |
| GACGGTTTCGACTTTCGGGATGTGCTA | 4.06 |
| GACGGACTGGACTTGCGGGACGTGCTA | -0.502 |
| TTAGGACTGGGTCTCGGTTTGTGCTAG | -0.476 |
| TTAGATATCAGTTTCGATTAGTGCTAG | 4.91 |
| TGAGATTCCAGTTTCGATTAGTGCTAG | 4.52 |
| AAGACCATCCTATGTAGATGTGTGCTA | 0.0332 |
| CTTTAACTCATTCTCTGCTTGTGCTAG | 1.48 |
| GACGATCTCAGTCTCGAGACGTGCTAG | 0.818 |
| TTAAGACTGGGGACTGGGTTAGTGCTA | -0.846 |
| TCTGTTTCTGATATGGTATGGTGCTAG | 4.11 |
| GACCGTTTCGGTTTCGGGACGTGCTAG | 10 |

Set 2
Target: Sal-like protein 4, full length isoform A (SALL4, Homo sapiens, UniProt Q9UJQ4, residues 1-1053)
UniProt Q9UJQ4, sequence (whole entry, looked up): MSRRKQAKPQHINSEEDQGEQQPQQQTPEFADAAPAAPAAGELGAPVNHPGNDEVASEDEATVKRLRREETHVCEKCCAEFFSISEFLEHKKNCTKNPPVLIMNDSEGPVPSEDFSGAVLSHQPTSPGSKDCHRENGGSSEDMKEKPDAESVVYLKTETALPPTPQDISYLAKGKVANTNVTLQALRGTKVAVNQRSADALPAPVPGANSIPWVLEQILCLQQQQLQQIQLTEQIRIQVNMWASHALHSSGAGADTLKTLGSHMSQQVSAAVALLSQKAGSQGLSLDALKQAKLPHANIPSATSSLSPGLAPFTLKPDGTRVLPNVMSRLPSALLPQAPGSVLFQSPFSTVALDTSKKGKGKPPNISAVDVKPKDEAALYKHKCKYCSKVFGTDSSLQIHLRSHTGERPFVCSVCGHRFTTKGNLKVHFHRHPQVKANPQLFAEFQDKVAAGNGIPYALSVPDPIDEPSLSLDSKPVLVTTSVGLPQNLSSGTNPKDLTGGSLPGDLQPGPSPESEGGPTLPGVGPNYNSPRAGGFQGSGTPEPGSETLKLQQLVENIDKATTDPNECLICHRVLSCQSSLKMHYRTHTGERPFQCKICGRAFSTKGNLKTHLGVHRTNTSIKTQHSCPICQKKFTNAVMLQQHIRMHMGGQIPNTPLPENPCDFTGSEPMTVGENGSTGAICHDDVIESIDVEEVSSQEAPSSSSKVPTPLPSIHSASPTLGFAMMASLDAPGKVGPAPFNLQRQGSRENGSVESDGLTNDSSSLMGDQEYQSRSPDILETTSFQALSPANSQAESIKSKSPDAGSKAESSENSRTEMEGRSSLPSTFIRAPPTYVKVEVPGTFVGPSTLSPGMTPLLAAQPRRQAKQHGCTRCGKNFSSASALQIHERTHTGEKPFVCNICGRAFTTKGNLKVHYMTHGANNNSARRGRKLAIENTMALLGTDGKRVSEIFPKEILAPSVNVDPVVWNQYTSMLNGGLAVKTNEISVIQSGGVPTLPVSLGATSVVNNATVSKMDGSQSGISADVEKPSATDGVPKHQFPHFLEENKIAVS
Technique: universal PBM
Molecule type: double-stranded DNA, one strand shown
Medium: in vitro
Concentration: 600 nM
Setting: 8-mer, flanks averaged, mean of replicates
Reading: higher = stronger binding
| Oligonucleotide | E-score |
| --- | --- |
| ATAGCCGC | -0.145 |
| GGACTCCC | -0.318 |
| TAGCCCTA | -0.0225 |
| ATAGAGGG | 0.0762 |
| ACAGAATG | 0.0751 |
| GGAAACCA | -0.264 |
| CTAGATCC | -0.174 |
| GAGAAATC | 0.0818 |
| GATGCCCC | -0.403 |
| CAACTGCC | -0.057 |
| CTGTGACA | -0.0889 |
| ACCGCGAA | -0.254 |
| GTTCGTAA | 0.186 |
| CTGACCAA | -0.0469 |
| CTCAGCGA | 0.0448 |
| ACCGCCCA | -0.33 |
| ACACTCCA | 0.0361 |
| AGTTAATC | 0.165 |
| CCCATAGC | -0.0991 |
| CGGTACCC | -0.212 |

Set 3
Target: RNA binding protein fox-1 homolog 2, RRM domain, GST-SBP tag (RBFOX2, Homo sapiens, UniProt O43251-10, residues 100-194)
Technique: RNA Bind-n-Seq
Molecule type: RNA
Medium: in vitro
Concentration: 365 nM
Setting: natural RNA segment, single round, ends assumed
Reference: no-protein control
Reading: higher = stronger binding
Residues (chain): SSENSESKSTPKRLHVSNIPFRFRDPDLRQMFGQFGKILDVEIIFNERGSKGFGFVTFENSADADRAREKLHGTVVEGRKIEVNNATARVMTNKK
| Oligonucleotide | RBNS enrichment (R) |
| --- | --- |
| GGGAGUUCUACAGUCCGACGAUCAGCUUCAGAUGAAGCUUUAAGCUGCAGUGUUGUGAAGUGAUUAAUUCCCUUUCUACCAACCCCGUGGGAGUUCUACAGUACGGCUGUCCUGACACGGCUCUUGUCUAGGAUGGAAUUCUCGGGUGCCAA | 0.295 |
| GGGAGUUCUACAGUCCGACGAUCACCAAACAGGCCUCUCGCUCACUCCUCCCAGCCCAGUAAUGCUGAGGAGUUCAGUUGUGAGGAAAGAAGGCUGGAGCUGUGAGAUUCGCUUUUCCCUAGGCUGUUCCGCGUGGAAUUCUCGGGUGCCAA | 0.354 |
| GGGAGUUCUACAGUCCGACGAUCUAAAUGCUCUUAUUUUUCCAACAGCUUAACUACUCCUAGUUCAAGAGUGUCCCUUAGCCUUCCUUGCAACCAGAGUAUUUUUGUACAGAUUUGCUUUCUCCUAAACAAACUGGAAUUCUCGGGUGCCAA | 0.54 |
| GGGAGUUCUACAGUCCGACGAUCCGUCCCACACUACGCCCCCGCCCCACUCCCGGGGCCUGCUAAUCUGAGGCCGAUCCGGGACCGGCCUCCUUGCGUCUCCCAUUCCCAAGAUUGUCCCGCCUCUGCCAAUCUGGAAUUCUCGGGUGCCAA | 0.854 |
| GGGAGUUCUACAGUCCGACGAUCUCUCCUGUCCAUGGGAAGCUUUUCCCCCUCUGCAGGGCUCCCUCAGCUGGACCAUCGUCCCUGCUUCUCUUAUGAUCGCCCCACCUCAUUUCCAUUUCAGUCUGGGGACCUGGAAUUCUCGGGUGCCAA | 0.528 |
| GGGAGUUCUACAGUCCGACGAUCGUGGGGUUAAUAUAGCAUGUUAUCCUGUCUAUCUUUUAAAGAUUUCUGUAUAAGACUGUUGAGCAGUUUUUAAAAUAGUGUAGGAUAAUAUAAAAAGCAGAUAGAUGGCGUGGAAUUCUCGGGUGCCAA | 19.9 |
| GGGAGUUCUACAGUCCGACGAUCGACUGUGUUGAUUACCUUCACUAUUCGGCCAGCCUGACCUUUUAAUAACUUUGUAAAAAGCAUGUAUGUAUUUAUAGUGUUUUAGAUUUUUCUAACUUUUAUAUCUUAAAUGGAAUUCUCGGGUGCCAA | 1.39 |
| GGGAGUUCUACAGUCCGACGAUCCCACAGGAAGUCCAGUCCCGACAGUGCCCUUGUUGCCUUUGAGCCAGAUCCAUGGCAAUGGUCUCCCCACAGACCGCAGGACUGAGCCUGGAGAGAGAAGUUGCUUGACGUGGAAUUCUCGGGUGCCAA | 0.346 |

Set 4
Target: Ras GTPase-activating protein-binding protein 1, C-terminal RGG region (G3BP1, Homo sapiens, UniProt Q13283)
UniProt Q13283, sequence (whole entry, looked up): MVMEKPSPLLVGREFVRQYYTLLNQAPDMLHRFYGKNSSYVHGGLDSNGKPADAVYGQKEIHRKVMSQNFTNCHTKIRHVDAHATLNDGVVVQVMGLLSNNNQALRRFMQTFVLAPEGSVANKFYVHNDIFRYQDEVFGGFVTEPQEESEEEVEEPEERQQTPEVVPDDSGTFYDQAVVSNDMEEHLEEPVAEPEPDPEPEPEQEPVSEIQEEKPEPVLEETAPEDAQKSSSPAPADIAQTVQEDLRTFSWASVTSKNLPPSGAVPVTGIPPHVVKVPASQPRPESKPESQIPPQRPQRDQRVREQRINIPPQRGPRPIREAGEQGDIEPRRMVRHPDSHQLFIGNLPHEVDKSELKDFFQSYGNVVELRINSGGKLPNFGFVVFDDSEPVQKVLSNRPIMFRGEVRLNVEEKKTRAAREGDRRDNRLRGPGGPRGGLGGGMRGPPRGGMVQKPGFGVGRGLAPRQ
Technique: RNA Bind-n-Seq
Molecule type: RNA
Medium: in vitro
Concentration: 1 µM
Setting: whole 134-nt RNA, ends assumed
Added: 150 mM KCl
Reference: input library
Reading: higher = stronger binding
| Oligonucleotide | log2 enrichment |
| --- | --- |
| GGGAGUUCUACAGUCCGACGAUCCAAGUCCUGUGCUACACAUCGUAUGUACCGAAUCGGGUUUGGGGUUUGGUUUGGGAAAGUAUUAUGUUACGCCGUUCGGAUCUGCACUUCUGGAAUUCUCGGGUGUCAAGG | -0.843 |
| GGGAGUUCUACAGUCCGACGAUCUGCCUCUGCGGCUAGCUGAUUUUGGGGUACUUCAUAGGAACGAGCUGUCUGGAGCACUCACAGGACUCACCCGGGUACGAAGAUUCCAACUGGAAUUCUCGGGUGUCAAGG | -1.72 |
| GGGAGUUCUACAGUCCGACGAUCAGUCCUGUGCUACACAUCGUAUGUACCGAAUCGGGUGGGAAAAAGGGUUUUUUUGGGAAAGUAUUAUGUUACGCCGUUCGGAUCUGCACUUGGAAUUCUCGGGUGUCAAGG | 0.342 |
| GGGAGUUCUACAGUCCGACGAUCAGUCCUGUGCUACACAUCGUAUGUACCGAAUCGGGGUUUUGGGUUUUGGGGUUUUGGAAAGUAUUAUGUUACGCCGUUCGGAUCUGCACUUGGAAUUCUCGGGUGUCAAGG | -0.788 |
| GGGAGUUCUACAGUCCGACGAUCUGUCCCAGGGAACGCCGGUGCAGAUGUGCUUCUUGUGGGCUCAGAGGCCUUCGUGCUGCUGGACGGGCAGGAGCUGACGCCUCGCUGGACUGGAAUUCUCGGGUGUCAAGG | -1.62 |
| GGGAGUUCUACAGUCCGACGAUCCUCAAGUCCUGUGCUACACAUCGUAUGUACCGAAUCGGGGUUGGGUUGGUUGGAAAGUAUUAUGUUACGCCGUUCGGAUCUGCACUUCCAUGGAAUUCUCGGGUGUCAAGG | -0.457 |
| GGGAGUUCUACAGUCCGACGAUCAAGUCCUGUGCUACACAUCGUAUGUACCGAAUCGGGGUUUGGGGUUUGGGGUGGGGAAAGUAUUAUGUUACGCCGUUCGGAUCUGCACUUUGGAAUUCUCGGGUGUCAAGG | 2.88 |
| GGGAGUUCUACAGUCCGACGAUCUCAAGUCCUGUGCUACACAUCGUAUGUACCGAAUCGGGGAAGGGGAAGGAAGGGAAAGUAUUAUGUUACGCCGUUCGGAUCUGCACUUCCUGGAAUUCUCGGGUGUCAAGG | -0.529 |
| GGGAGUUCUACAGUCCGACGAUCUUCAUUCUUACUUUGAAUCUAGGAUUUUAUGGAAGACCUUGGGUUAUGGAACAGAGAAAAGAACUCUUUAGAAGGUAAAUCUUCAUUAUAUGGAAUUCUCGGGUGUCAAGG | -2.29 |

For quick reference, copied from above (set 1):
| Oligonucleotide | fitted relative affinity [z-score] |
| --- | --- |
| GACGGTCTGCTACTGCTGACGTGCTAG | -0.446 |
| CCAGACCCTGATCCATGCATGTGCTAG | -0.157 |
| GACCGTTTCGGTTTCGGGACGTGCTAG | 10 |
